Experimental data from different studies.
Lines come from different studies, so protocols differ. ± gives the spread as reported.
Cell line: HepG2

SMILES | test | test system | conditions | how to read | endpoint | result
Cc1ccccc1S(=O)(=O)N1CCCC2(C1)Nc1cccnc1N=C2NC1CCCC1 (stereo not shown) |  |  | 72 (unit not given) |  | CC50 | 73.8 µM
Cc1ccc(NC(=O)Nc2cccc(C(=O)N3CCC(C)CC3)c2)cc1 | cell growth or viability, MTT |  | 100 µM |  | viability | 96.2%
O=C(O)c1cccc(CP(=O)(O)O)n1 | cytotoxicity, Alamar blue | DMEM without FBS | 24 h, 10% FBS |  | EC50 | > 250 µg/mL
NC(=O)c1cc(-c2ccco2)ccc1OCCc1cccc(F)c1 |  |  | 3 (unit not given) | reference: CC50 glucose over CC50 galactose | selectivity ratio | < 1
C#Cc1cc(/C=N/NC(=O)CCl)c2nccn2c1 | cell growth or viability, ATP luminescence |  | 24 h |  | IC50 | 33.9 µM
NC(=O)c1cc(C2=CCOC2)ccc1OCCc1cccc(F)c1 |  | galactose medium | 3 (unit not given) |  | CC50 | 29 ± 4 µM
CC1CCC(C(C)(C)C(=O)Nc2ccc(Oc3ccccc3)cc2)CC1 (stereo not shown) | cell growth or viability |  | 72 h |  | IC50 | 14.4 µM
NC(=O)c1cc(-c2ccc(C(F)(F)F)nc2)ccc1OCCc1cccc(F)c1 |  | galactose medium | 3 (unit not given) |  | CC50 | > 100 µM
O=C(CCl)Nc1cccc(NC2=NS(=O)(=O)c3ccccc32)c1 | cell growth or viability, ATP luminescence |  |  |  | IC50 | 38.2 µM
CC1CCN(C(=O)c2cccc(NC(=O)Nc3ccc(F)cc3)c2)CC1 | cell growth or viability, MTT |  | 100 µM |  | viability | 96.1%
C#CCOc1ccc(-c2nc(C)c(C(=O)OCC)s2)cc1/C=N/NC(=O)C=C | cell growth or viability, ATP luminescence |  | 24 h |  | IC50 | 54.5 µM
CC1CCN(C(=O)c2cccc(NC(=O)Nc3ccc(N)cc3)c2)CC1 | cell growth or viability, MTT |  | 100 µM |  | viability | 85.7%
NC(=O)c1cc(-c2ccoc2)ccc1OCCc1cccc(F)c1 |  | galactose medium | 3 (unit not given) |  | CC50 | 37 ± 9.5 µM

Some of these lines once more:
SMILES | test | test system | conditions | how to read | endpoint | result
NC(=O)c1cc(-c2ccco2)ccc1OCCc1cccc(F)c1 |  |  | 3 (unit not given) | reference: CC50 glucose over CC50 galactose | selectivity ratio | < 1
C#Cc1cc(/C=N/NC(=O)CCl)c2nccn2c1 | cell growth or viability, ATP luminescence |  | 24 h |  | IC50 | 33.9 µM
